Measurements collected from several papers.
Parts stem from different laboratories: compare values within a part only. Positions count from the first letter of the parent shown.

Sample 1 — technique: universal PBM; form: double-stranded DNA, one strand shown; matrix: in vitro; tested at: 600 nM; reading: higher = stronger binding; measurement: E-score
Target: Sal-like protein 4, full length isoform A (SALL4, Homo sapiens, UniProt Q9UJQ4, residues 1-1053)
Chain of UniProt Q9UJQ4 (whole entry, looked up): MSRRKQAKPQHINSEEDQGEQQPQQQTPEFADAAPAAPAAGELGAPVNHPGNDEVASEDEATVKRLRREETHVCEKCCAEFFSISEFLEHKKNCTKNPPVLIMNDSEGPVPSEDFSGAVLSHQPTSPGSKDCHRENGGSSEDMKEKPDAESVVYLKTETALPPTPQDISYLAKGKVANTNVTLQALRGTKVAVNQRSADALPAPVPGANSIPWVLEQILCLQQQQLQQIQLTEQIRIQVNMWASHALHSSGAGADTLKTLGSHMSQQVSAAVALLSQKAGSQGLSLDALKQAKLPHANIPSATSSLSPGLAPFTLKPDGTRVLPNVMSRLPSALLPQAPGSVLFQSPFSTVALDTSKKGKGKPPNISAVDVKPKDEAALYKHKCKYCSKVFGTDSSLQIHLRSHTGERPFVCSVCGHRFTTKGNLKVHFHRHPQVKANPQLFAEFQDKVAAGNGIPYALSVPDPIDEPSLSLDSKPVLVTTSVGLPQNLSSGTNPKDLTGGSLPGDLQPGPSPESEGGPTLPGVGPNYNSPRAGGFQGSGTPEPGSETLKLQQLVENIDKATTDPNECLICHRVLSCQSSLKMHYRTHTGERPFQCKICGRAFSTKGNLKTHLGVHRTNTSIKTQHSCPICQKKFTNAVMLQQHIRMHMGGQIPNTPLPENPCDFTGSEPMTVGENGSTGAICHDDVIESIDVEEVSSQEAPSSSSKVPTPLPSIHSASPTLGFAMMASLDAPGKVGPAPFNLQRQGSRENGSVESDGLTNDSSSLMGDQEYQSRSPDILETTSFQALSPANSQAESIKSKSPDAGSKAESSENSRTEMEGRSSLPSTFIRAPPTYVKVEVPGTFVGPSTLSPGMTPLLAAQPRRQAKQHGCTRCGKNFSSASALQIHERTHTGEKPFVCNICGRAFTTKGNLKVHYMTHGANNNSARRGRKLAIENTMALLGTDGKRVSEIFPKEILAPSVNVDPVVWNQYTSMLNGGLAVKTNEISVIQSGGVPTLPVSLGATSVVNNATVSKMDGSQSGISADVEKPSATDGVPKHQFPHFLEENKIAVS
Notes: 8-mer, flanks averaged, mean of replicates
CATTGACC: 0.126
TGAATGCA: 0.226
AAGACCGT: -0.183
CGTCTTAG: -0.111
CATAACCG: 0.157
GATGTTTA: 0.161
AAGCTTAA: 0.195
ATAGCGAA: 0.295

Sample 2 — technique: DHFR PCA, deep sequencing; matrix: yeast; with: (+)-ABA 4.8 µM; reference: wild-type fitted maximum; reading: higher = stronger binding; measurement: relative binding score
Target: ABI1, truncated, D143A, DHFR fusion (Arabidopsis thaliana)
Notes: methotrexate growth selection, single substitutions
Parent: PYL1, truncated, DHFR fusion (Arabidopsis thaliana); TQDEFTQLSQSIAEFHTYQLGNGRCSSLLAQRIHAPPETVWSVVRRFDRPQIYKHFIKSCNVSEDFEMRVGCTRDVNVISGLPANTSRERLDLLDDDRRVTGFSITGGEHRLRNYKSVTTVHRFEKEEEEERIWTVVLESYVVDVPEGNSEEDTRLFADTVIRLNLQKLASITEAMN
E139Q: 71%
Q167D: 23.3%
I12M: 30.7%
T1Y: 73.8%
T39G: 18.5%
G148N: 54%
W41Y: -16.1%
L82M: 62.3%

Sample 3 — target: CCNB3, cyclin fold, Cln2 fusion (human); technique: yeast growth competition, sequencing; matrix: yeast; notes: weak parent motif; reference: not given; reading: higher = stronger binding; measurement: normalised enrichment score
Parent: MASTL docking peptide (human); PMIAKNLMCELDE
PMIAKNLMCELKE [D12K]: 0.1
PMIWKNLMCELDE [A4W]: 0.698
PMIASNLMCELDE [K5S]: -0.448
PMIAKNLMTELDE [C9T]: -0.0701
PKIAKNLMCELDE [M2K]: -0.0718
PMIAKNLMCNLDE [E10N]: -0.00466
PMIAKNMMCELDE [L7M]: -0.229
PMIAKNLPCELDE [M8P]: -0.149

Single results of other studies
Parent: PafA, mature enzyme, eGFP fusion (Elizabethkingia meningoseptica, UniProt Q9KJX5); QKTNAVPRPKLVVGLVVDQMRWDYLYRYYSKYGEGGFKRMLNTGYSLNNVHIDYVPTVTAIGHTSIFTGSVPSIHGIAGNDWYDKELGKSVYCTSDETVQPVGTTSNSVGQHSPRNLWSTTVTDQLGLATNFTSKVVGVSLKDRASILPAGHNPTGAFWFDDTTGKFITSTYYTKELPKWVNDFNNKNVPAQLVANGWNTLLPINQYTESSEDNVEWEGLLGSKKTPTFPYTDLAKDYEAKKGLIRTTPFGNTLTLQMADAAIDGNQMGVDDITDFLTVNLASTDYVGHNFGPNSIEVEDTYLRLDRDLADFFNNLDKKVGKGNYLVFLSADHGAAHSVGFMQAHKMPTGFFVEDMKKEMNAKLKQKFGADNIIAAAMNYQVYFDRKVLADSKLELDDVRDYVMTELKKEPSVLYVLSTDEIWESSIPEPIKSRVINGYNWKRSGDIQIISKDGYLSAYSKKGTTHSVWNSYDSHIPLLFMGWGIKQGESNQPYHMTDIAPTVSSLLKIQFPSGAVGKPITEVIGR
Y494V — oxyanion analog dissociation constant (tungstate, free oxyanion; microfluidic competitive inhibition; in vitro, cell-free expressed; not given, derived from inhibition constants, unchanged parent 2230 nM; lower = stronger binding): 2280 nM

A few entries again (sample 3):
PMIAKNLMCELKE [D12K]: 0.1
PMIAKNLMTELDE [C9T]: -0.0701
PKIAKNLMCELDE [M2K]: -0.0718
